Measured values of several laboratories.
Compare with care: the assays were run in different laboratories. Several values in a cell are separate wells, animals, samples, runs or records.
FYN: Tyrosine-protein kinase Fyn (FYN, Homo sapiens, UniProt P06241)

| Compound | target | test | setting | how to read | quantity | result |
| --- | --- | --- | --- | --- | --- | --- |
| C=CC(=O)Nc1cccc(-c2cnc3[nH]cc(C(=O)NC(C)(C)C)c3n2)c1 | FYN | enzyme activity, inhibitor | 0.1 µM | – | inhibition | 26% |
| Nc1ncc2c(n1)-c1c([nH]c3ccc(C4=CCOCC4)cc13)CCC2 | FYN | binding, competition with immobilised ligand | 1 µM | – | remaining binding | 100% |
| COc1c(Cl)cccc1Nc1c(-c2ccncc2C#C[C@@]2(C)CCCN2C(=O)/C=C/CN(C)C)[nH]c2c1C(=O)NCC2 | FYN | binding, competition with immobilised ligand | 3 µM | – | remaining binding | 93% |
| NC(=O)[C@@H](O)C[C@H]1CCc2sc3ncnc(O[C@H]4CC[C@H](N5CCOCC5)CC4)c3c21 | FYN | enzyme activity, inhibitor | 10 µM | – | inhibition | 47% |
| Cc1ccc(-c2c(/C=C(\C#N)C(=O)NC(C)C)n(CCCO)c3ncnc(N)c23)cc1 | FYN | cell-free assay, competition with immobilised ligand | 1 µM | – | remaining binding | 52% |
| Cc1cccc(O[C@H]2CCC[C@@H](C(C)CNCc3ccncc3)C2)c1 (relative stereo) | FYN | enzyme activity, inhibitor | 1 µM | – | inhibition | 3% |
| CCN1CCN(Cc2ccc(NC(=O)c3ccc(C)c(NC(=O)c4cncc(-c5cccs5)c4)c3)cc2C(F)(F)F)CC1 | FYN | binding, competition with immobilised ligand | 1 µM | – | remaining binding | 1.4% |
| O=c1c(-c2ccc(Cl)c(CN3CCOCC3)c2)coc2cc(O)ccc12 | FYN | enzyme activity, inhibitor | 1 µM | – | remaining activity | 113% |
| CCn1cc(C(=O)O)c(=O)c2c(N)c(F)c(NC3CCCCC3)cc21 | Tyrosine-protein kinase Fyn, isoform a (FYN, Homo sapiens, UniProt P06241) | kinase activity | 0.1 µM, together with: ATP at Km | – | inhibition | 4.8% |
| COCC12C(=O)NC3C4(C(OC)CC1O)C1CC5(O)C(OC)C(O)C(OC(C)=O)(C1C5OC(=O)c1ccccc1)C3(O)C(OC)C24 (stereo not shown) | FYN | kinase activity, inhibitor, ProQinase kinase profiling | 25 µM | relative to: control | remaining activity | 85% and 88% |
| Cc1cnc2nc1Nc1cccc(c1)COC/C=C/COCc1cc(ccc1OCCN1CCOCC1)N2 | FYN | binding | 0.1 µM | – | remaining binding | 75% |
| Nc1ncc(-c2cc(-c3cnn(CC(F)(F)F)c3)ncc2F)nc1C(=O)NC1CNCC(F)C1 (stereo not shown) | FYN | enzyme activity | 1 µM | relative to: DMSO control | remaining activity | 82.7% |
| C=CC(=O)N1CCc2ccc(-n3c(=O)ccc4cnc5ccc(-c6cnn(C)c6)cc5c43)cc21 | FYN | KINOMEscan | 1 µM | relative to: DMSO control | remaining binding | 99% |
| COc1ccc(C(=O)/C=C/c2ccccc2-c2c[nH]c3ccc(C#N)cc23)c(O)c1 | FYN | enzyme activity, inhibitor | 20 µM | – | inhibition | -34% |
| CCN1CCN(Cc2ccc(C(=O)Nc3ccc(C)c(NCc4cnc5[nH]ccc5c4OC)c3)cc2C(F)(F)F)CC1 | FYN | binding, competition with immobilised ligand | 1 µM | – | remaining binding | 6% |
| CNC1C[S+]2CC[S+]3CC[S+](C1)[Ru-4]321([N]=C=S)[n]2c3ccc(OC)cc3c3c4c(c5cc(F)c[n+]1c5c32)C(=O)NC4=O (stereo not shown) | FYN | KinomeScan | 0.1 µM | relative to: untreated | remaining binding | 100% |

Excerpt of the above:
| Compound | target | test | setting | how to read | quantity | result |
| --- | --- | --- | --- | --- | --- | --- |
| CCN1CCN(Cc2ccc(NC(=O)c3ccc(C)c(NC(=O)c4cncc(-c5cccs5)c4)c3)cc2C(F)(F)F)CC1 | FYN | binding, competition with immobilised ligand | 1 µM | – | remaining binding | 1.4% |
